Measurements from different studies.
Numbered parts are unrelated; each lists some results of a single study.
Sequence of UniProt P53355 (whole entry, looked up): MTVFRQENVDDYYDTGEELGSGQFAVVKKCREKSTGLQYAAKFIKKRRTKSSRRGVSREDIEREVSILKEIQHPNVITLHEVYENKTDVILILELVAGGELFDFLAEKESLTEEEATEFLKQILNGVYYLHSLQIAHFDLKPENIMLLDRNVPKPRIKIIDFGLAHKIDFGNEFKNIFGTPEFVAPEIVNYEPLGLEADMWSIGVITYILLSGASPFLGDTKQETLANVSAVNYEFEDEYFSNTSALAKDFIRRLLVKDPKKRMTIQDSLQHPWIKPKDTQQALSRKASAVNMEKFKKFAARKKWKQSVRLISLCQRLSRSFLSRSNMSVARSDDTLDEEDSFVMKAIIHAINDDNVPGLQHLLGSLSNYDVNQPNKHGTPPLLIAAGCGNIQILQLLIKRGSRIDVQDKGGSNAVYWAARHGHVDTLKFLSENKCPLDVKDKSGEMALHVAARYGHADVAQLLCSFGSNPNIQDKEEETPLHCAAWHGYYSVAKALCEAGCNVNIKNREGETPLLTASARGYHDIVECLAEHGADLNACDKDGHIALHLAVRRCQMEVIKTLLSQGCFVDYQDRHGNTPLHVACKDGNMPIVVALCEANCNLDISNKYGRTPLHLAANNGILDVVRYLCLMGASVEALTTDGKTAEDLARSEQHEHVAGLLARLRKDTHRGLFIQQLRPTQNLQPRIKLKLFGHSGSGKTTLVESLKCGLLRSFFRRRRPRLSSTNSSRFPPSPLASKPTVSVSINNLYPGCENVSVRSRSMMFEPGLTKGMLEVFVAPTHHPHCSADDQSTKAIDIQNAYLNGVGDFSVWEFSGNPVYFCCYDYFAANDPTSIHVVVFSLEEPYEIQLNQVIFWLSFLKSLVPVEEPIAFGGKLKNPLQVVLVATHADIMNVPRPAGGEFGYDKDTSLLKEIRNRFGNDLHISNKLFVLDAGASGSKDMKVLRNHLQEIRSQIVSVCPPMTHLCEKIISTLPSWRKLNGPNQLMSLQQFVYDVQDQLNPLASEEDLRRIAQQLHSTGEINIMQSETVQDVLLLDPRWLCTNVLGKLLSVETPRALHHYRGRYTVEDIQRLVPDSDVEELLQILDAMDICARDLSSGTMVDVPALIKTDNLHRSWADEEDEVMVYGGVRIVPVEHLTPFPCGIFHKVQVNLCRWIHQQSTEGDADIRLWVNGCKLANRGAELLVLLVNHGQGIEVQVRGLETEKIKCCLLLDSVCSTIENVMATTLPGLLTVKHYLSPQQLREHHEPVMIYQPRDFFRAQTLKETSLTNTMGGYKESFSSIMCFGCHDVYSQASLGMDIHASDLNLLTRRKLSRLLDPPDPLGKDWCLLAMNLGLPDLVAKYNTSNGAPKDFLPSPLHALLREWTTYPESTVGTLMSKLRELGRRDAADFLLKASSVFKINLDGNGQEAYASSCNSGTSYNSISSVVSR
Sequence of UniProt Q99640 (whole entry, looked up): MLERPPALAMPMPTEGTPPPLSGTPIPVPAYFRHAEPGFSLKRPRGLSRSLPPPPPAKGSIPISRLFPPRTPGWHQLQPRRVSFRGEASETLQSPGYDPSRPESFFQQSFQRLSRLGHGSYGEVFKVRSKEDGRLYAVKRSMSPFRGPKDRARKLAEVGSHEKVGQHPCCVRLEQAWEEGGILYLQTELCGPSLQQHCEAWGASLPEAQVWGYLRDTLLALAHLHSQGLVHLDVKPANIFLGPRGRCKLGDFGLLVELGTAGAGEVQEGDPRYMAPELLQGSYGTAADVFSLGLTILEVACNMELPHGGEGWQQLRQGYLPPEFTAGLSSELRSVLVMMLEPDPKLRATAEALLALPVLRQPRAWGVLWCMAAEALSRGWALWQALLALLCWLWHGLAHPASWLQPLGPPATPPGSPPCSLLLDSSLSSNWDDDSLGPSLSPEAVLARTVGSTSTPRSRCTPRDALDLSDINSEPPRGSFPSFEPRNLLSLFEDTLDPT
Sequence of UniProt P50750 (whole entry, looked up): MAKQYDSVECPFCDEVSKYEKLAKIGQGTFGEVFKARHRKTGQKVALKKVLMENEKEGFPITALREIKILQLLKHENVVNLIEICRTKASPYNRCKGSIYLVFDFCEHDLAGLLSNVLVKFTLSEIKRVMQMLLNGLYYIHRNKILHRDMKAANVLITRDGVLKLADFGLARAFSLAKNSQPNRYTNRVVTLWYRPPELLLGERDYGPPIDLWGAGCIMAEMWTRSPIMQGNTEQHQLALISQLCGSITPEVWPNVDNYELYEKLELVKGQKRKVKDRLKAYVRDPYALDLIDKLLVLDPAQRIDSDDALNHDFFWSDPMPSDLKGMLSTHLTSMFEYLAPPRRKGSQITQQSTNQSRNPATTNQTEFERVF
Sequence of UniProt P42338 (whole entry, looked up): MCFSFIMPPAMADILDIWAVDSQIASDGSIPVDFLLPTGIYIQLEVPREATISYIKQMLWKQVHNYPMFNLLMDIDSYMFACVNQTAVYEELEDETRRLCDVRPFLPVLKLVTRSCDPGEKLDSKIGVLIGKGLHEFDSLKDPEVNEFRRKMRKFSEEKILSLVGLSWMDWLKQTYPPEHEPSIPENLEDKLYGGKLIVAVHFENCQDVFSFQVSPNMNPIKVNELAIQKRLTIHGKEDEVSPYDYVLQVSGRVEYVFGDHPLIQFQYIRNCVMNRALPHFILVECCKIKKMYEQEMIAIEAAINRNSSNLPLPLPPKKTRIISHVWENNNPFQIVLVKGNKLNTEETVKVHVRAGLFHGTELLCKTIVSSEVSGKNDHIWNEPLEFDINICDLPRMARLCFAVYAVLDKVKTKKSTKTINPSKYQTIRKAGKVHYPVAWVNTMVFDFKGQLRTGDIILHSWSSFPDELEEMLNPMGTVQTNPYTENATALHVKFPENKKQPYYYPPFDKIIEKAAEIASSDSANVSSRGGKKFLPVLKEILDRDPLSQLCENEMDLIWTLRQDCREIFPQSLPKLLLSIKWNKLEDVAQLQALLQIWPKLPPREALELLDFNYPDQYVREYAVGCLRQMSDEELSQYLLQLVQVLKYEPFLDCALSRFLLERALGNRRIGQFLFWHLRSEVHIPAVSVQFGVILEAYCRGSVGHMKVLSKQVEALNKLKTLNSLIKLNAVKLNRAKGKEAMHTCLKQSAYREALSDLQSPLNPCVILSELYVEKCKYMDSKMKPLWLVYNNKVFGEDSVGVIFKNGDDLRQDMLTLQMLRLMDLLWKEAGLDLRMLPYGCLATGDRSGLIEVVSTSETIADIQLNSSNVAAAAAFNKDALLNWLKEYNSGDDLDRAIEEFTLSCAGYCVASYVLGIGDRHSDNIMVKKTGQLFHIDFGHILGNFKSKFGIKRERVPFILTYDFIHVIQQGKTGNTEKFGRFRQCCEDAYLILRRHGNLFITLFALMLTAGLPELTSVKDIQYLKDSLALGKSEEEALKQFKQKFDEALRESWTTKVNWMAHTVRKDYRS
Sequence of UniProt O14757 (whole entry, looked up): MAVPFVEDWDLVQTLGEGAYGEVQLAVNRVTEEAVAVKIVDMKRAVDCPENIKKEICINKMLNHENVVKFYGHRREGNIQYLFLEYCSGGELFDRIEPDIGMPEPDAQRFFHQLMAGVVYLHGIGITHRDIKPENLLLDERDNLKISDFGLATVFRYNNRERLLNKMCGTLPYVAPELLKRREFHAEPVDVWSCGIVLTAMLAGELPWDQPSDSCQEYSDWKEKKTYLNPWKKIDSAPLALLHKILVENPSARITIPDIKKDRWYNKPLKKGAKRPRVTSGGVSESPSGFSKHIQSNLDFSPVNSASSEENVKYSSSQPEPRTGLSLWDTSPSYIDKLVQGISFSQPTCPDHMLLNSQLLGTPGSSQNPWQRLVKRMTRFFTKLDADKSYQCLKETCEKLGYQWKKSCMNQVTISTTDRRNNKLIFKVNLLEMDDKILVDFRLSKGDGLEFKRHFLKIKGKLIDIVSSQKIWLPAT
Sequence of UniProt Q99755 (whole entry, looked up): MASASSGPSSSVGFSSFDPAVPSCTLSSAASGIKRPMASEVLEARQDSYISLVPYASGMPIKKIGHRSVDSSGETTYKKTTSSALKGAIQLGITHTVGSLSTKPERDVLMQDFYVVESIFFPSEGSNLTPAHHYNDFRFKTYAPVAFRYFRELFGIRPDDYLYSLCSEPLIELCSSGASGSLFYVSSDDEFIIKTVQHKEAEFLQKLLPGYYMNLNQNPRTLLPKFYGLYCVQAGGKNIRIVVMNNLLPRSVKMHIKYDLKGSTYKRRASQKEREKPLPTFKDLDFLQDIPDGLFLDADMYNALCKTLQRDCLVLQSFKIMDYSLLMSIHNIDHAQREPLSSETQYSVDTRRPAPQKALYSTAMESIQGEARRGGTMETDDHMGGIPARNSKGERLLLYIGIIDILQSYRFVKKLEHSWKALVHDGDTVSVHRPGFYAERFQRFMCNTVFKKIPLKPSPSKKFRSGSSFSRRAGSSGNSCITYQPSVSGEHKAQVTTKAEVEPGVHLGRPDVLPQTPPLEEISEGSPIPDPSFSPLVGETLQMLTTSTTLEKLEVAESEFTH

Block 1
Host: mouse
Sample: microsomes or S9
Tested at: 2 µM
Time: 0.5 h
Quantity: remaining compound
Cc1nc2ncnn2c(C)c1CCC(=O)OC1(C)CCC(C)(C)CC1: > 99.9%
COC(=O)c1ccccc1NC(=O)c1c(OC)cc(=O)n2c1CCCC2: 2.36%
COc1ccc(Cl)cc1NC(=O)c1cc2c(OC)ccc(OC)c2n1C: 27.5%
CCN(CC)C(=O)c1nc2cc(-c3ccc(C#N)cc3)sc2c(=O)[nH]1: 76.8%
Oc1ccccc1Oc1ncc(Br)c(Cl)n1: 54.8%
Brc1ccc2nc(-c3cccs3)cn2c1: 45.7%
CC(C)c1cc(C(C)C)c(S(=O)(=O)NCCCO)c(C(C)C)c1: 0.536%
Brc1cccc(-c2cnc3n2CCCCC3)c1: 0.218%
O=C(NCC1OCCc2sc(F)cc21)c1ccn2nnnc2c1 (centres unmarked): 56.6%
Cn1nccc1NC(=O)c1cnc2c(F)cc(F)cc2c1O: 58.1%
c1ccc2c(c1)ccc1nnc(-c3c[nH]c4ccccc34)n12: 4.33%

Block 2
Compound: CC(=O)C1=C(C)N(c2cccc(C(F)(F)F)c2)C(=O)N[C@@H]1c1ccc(C#N)nc1
Tested at: 1 µM
Quantity: remaining binding
Tyrosine-protein kinase ABL1, phosphorylated (ABL1, Homo sapiens, UniProt P00519, F317I); binding: 100%
PKMYT1 (Homo sapiens, UniProt Q99640); cell-free assay, competition with immobilised ligand: 90.6%
Tyrosine-protein kinase JAK1, JH2 (JAK1, Homo sapiens, UniProt P23458); cell-free assay, competition with immobilised ligand: 100%
CHEK1 (Homo sapiens, UniProt O14757); cell-free assay, competition with immobilised ligand: 73.2%
MERTK (Homo sapiens, UniProt Q12866); cell-free assay, competition with immobilised ligand: 100%
STK35 (Homo sapiens, UniProt Q8TDR2); cell-free assay, competition with immobilised ligand: 85.9%
PIP5K1A (Homo sapiens, UniProt Q99755); cell-free assay, competition with immobilised ligand: 100%
PIK3CA (Homo sapiens, UniProt P42336, E545A); cell-free assay, competition with immobilised ligand: 75.6%
DAPK1 (Homo sapiens, UniProt P53355); cell-free assay, competition with immobilised ligand: 93.8%
STK17B (Homo sapiens, UniProt O94768); cell-free assay, competition with immobilised ligand: 100%
LATS1 (Homo sapiens, UniProt O95835); cell-free assay, competition with immobilised ligand: 67.1%
PIK3CB (Homo sapiens, UniProt P42338); cell-free assay, competition with immobilised ligand: 100%
ANKK1 (Homo sapiens, UniProt Q8NFD2); cell-free assay, competition with immobilised ligand: 100%
MAPK4 (Homo sapiens, UniProt P31152); cell-free assay, competition with immobilised ligand: 100%
CDK9 (Homo sapiens, UniProt P50750); cell-free assay, competition with immobilised ligand: 100%
SYK (Homo sapiens, UniProt P43405); cell-free assay, competition with immobilised ligand: 100%
Ribosomal protein S6 kinase alpha-5, C-terminal kinase domain (RPS6KA5, Homo sapiens, UniProt O75582); cell-free assay, competition with immobilised ligand: 83.4%
CDC42BPA (Homo sapiens, UniProt Q5VT25); cell-free assay, competition with immobilised ligand: 100%
MATK (Homo sapiens, UniProt P42679); cell-free assay, competition with immobilised ligand: 100%

Block 3
Target: Calcium/calmodulin-dependent protein kinase type II subunit alpha (CAMK2A, Homo sapiens, UniProt Q9UQM7)
Sequence of UniProt Q9UQM7 (whole entry, looked up): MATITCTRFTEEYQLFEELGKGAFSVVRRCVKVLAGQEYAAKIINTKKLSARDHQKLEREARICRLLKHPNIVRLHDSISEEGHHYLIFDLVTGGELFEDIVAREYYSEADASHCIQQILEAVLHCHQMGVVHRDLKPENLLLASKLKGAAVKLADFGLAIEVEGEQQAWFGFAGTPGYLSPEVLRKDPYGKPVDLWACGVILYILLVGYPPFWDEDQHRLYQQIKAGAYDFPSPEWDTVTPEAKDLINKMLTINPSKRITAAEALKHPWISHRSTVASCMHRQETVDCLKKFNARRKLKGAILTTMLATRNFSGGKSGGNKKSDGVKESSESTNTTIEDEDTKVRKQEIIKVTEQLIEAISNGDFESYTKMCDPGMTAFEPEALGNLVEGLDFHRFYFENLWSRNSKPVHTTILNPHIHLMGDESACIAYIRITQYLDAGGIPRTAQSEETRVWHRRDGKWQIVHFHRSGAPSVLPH
Observed: enzyme activity
Mode: inhibitor
Tested at: 10 µM
Quantity: inhibition
CCc1cccc2c3c([nH]c12)C(CC)(CC(=O)O)OCC3 (centres unmarked): -11%
Cc1cc(=O)oc2c(O)c(O)ccc12: 22%
N#C[C@@H]1CCCN1C(=O)CNC12C[C@@H]3C[C@@H](CC(O)(C3)C1)C2: 5%
O=C(O)CCCC(=O)C(=O)O: -13%
COc1ccc(-c2coc3cc(O[C@@H]4O[C@H](CO)[C@@H](O)[C@H](O)[C@H]4O)ccc3c2=O)cc1O: -7%

Block 4
Target: Dual specificity mitogen-activated protein kinase kinase 6 (MAP2K6, Homo sapiens, UniProt P52564)
Observed: enzyme activity
Mode: inhibitor
Tested at: 0.5 µM
Baseline: control
Quantity: remaining activity
Residues (P52564 1-334): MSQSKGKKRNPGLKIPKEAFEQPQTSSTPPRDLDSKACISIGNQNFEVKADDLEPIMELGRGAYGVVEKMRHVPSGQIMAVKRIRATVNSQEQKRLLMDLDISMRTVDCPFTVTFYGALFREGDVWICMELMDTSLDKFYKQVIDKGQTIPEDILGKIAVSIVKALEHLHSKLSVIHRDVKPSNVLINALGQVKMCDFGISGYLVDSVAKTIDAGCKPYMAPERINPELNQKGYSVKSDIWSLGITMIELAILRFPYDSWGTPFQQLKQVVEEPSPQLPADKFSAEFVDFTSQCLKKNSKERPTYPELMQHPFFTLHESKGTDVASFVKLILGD
O=C(Nc1cccc(Nc2nccc(Nc3cccc(C(F)(F)F)c3)n2)c1)C1CC1: 98.3%
Nc1cccc(-c2cc3c(Oc4cccc(O)c4)ncnc3[nH]2)c1: 90.1%
O=C1c2ccccc2-c2n[nH]c3cccc1c23: 87.1%
c1ccc(-c2cnc(Nc3ccc(OCCN4CCCC4)cc3)s2)cc1: 93.6%
COc1cc2ncnc(Nc3ccc(O)c(Br)c3)c2cc1OC: 84.9%
O=c1cc(-c2cccc3c2Sc2ccccc2S3)oc(N2CCOCC2)c1: 107%
Cc1cn(-c2cc(NC(=O)c3ccc(C)c(Nc4nccc(-c5cccnc5)n4)c3)cc(C(F)(F)F)c2)cn1: 96.3%
COc1cc2c(cc1OC)-c1[nH]nc(Nc3cccc(F)c3)c1C2: 87%
CN([C@@H](Cc1ccc(OS(=O)(=O)c2cccc3cnccc23)cc1)C(=O)N1CCN(c2ccccc2)CC1)S(=O)(=O)c1cccc2cnccc12: 104%
C[C@@H]1CCN(C(=O)CC#N)C[C@@H]1N(C)c1ncnc2[nH]ccc12: 99.4%
CCOc1nc(NC(=O)Cc2cc(OC)ccc2OC)cc(N)c1C#N: 96.8%
O=C1C(Cl)=C(N2C(=O)CCC2=O)C(=O)c2ccccc21: 107%
CCN(CC)CCNC(=O)c1c(C)[nH]c(/C=C2\C(=O)Nc3ccc(Cl)cc32)c1C: 86.2%
Ic1cccc(CSc2nnc(-c3ccncc3)o2)c1: 97%
CN(C)C[C@H]1CCn2c(c(C3=C(c4cn(C)c5ccccc45)C(=O)NC3=O)c3ccccc32)C1: 109%
CCN(CC)C(=O)c1ccc(Nc2nc(OCC3CCCCC3)c3[nH]cnc3n2)cc1: 93.1%
Cc1cc2ncc(-c3ccccc3)nc2cc1C: 91.1%
N#Cc1c(NC(=O)c2cccc3ccccc23)sc2c1CCCC2: 98.1%
COc1cc2ncnc(Nc3cccc(Cl)c3)c2cc1OC: 88.7%
N#C/C(=C\c1ccc(O)c(O)c1)C(=O)NCc1ccccc1: 127%
Cn1nc2c3c(cccc31)C(=O)c1ccccc1-2: 96.4%
Cc1nc2cc3nc(-c4cccs4)cnc3cc2n1C: 104%
O=C(NC(NC(=S)Nc1ccc(F)c([N+](=O)[O-])c1)C(Cl)(Cl)Cl)C(c1ccccc1)c1ccccc1 (centres unmarked): 107%
c1ccc(-c2[nH]ncc2-c2ccnc3ccccc23)nc1: 138%

For quick reference, copied from above (block 3):
COc1ccc(-c2coc3cc(O[C@@H]4O[C@H](CO)[C@@H](O)[C@H](O)[C@H]4O)ccc3c2=O)cc1O: -7%
O=C(O)CCCC(=O)C(=O)O: -13%
CCc1cccc2c3c([nH]c12)C(CC)(CC(=O)O)OCC3 (centres unmarked): -11%
N#C[C@@H]1CCCN1C(=O)CNC12C[C@@H]3C[C@@H](CC(O)(C3)C1)C2: 5%
Cc1cc(=O)oc2c(O)c(O)ccc12: 22%
